Measured values of several laboratories.
Every numbered part comes from another study and shows a few of its results, in no order. Substitutions count along the parent as printed.

Series 1 — target: UBE2E3 UBC core domain (UniProt Q969T4); method: yeast two-hybrid; medium: yeast; notes: mostly zero background; relative to: not given; direction: higher = stronger interaction
B1: MDM2 RING domain (UniProt Q00987); chain TQDKEESVESSLPLNAIEPCVICQGRPKNGCIVHGKTGHLMACFTCAKKLKKRNKPCPVCRQPIQMIVLTYFP
B2: UBE4B RING domain (UniProt O95155); chain KNARAEIDYSDAPDEFRDPLMDTLMTDPVRLPSGTIMDRSIILRHLLNSPTDPFNRQTLTESMLEPVPELKEQIQAWMREKQNSDH
B3: PJA2 RING domain (UniProt O43164); chain DHTAIGQEQCCPICCSEYIKDDIATELPCHHFFHKPCVSIWLQKSGTCPVCRRHFPPAVIEA
B4: SHPRH RING domain (UniProt Q149N8); chain KTSGGVNPEPCPICARQLGKQWAVLTCGHCFCNECISIIIEQYSVGSHRSSIKCAICRQTTSHKEISY
B5: ARIH1 RING domain (UniProt Q9Y4X5); chain NTRSSAQDMPCQICYLNYPNSYFTGLECGHKFCMQCWSEYLTTKIMEEGMGQTISCPAHGCDILVDDNTVM
B6: CBLL1 RING domain (UniProt Q75N03); chain GEKDDTPVHFCDKCGLPIKIYGRMIPCKHVFCYDCAILHEKKGDKMCPGCSDPVQRIEQCT
| Molecule | lacZ reporter activity |
| --- | --- |
| SNNDLASLFECPVCFDYVLPPILQCQSGHLVCSNCRPKLTCCPTCRGPLGSIRNLA (SIAH1 RING domain (UniProt Q8IUQ4)) | 0 |
| KITELNPHLMCALCGGYFIDATTIVECLHSFCKTCIVRYLETNKYCPMCDVQVHKTRPLL (PCGF2 RING domain (UniProt P35227)) | 0 |
| B1 (MDM2 RING domain) | 0 |
| B2 (UBE4B RING domain) | 0 |
| B3 (PJA2 RING domain) | 2190 |
| B4 (SHPRH RING domain) | 0 |
| B5 (ARIH1 RING domain) | 0 |
| B6 (CBLL1 RING domain) | 0 |

Series 2 — target: CEBPA, bZIP domain (human); method: DHFR protein complementation; medium: yeast; relative to: wild-type JUN-FOS pair; direction: higher = stronger binding
Notes: single substitutions, most at no-binding floor
Parent: JUN, bZIP domain (human); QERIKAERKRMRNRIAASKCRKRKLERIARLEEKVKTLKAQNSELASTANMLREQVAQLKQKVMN; partner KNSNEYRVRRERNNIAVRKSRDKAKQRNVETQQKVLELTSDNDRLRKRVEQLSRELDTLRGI
| Change | binding fitness [natural log] |
| --- | --- |
| A46P | -1.49 |
| L31H | -1.55 |
| I28E | -1.18 |
| L45A | -1.45 |
| S47A | -1.35 |
| M51Y | -1.37 |
| E33N | -1.43 |
| A40R | -1.42 |
| A57S | -1.32 |
| T37Q | -1.06 |
| T37I | -1.39 |
| N42H | -1.49 |
| I28G | -1.43 |
| A57H | -1.48 |

Series 3 — method: DHFR PCA, deep sequencing; medium: yeast; with: (+)-ABA 58 µM; relative to: wild-type fitted maximum; direction: higher = stronger binding
Target: ABI1, truncated, D143A, DHFR fusion (Arabidopsis thaliana)
Notes: methotrexate growth selection, single substitutions
Parent: PYL1, truncated, DHFR fusion (Arabidopsis thaliana); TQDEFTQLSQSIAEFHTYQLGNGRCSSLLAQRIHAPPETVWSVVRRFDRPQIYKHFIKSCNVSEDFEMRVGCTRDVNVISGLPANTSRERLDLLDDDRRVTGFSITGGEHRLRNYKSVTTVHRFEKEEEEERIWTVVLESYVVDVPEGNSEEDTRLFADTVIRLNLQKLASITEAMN
| Change | relative binding score [%] |
| --- | --- |
| I79L | 58.3 |
| R74N | -2.99 |
| A84V | 12.2 |
| N149V | 36.5 |
| Q19I | 79.4 |
| G107F | 9.26 |
| P36N | 81.8 |
| V76I | 86.1 |
| E128C | 91.5 |
| I33H | 10.8 |
| V118G | -7.98 |
| K58L | 64.2 |
| V78M | 68 |
| G21Q | 88.8 |
| R49T | 81 |
| R69D | 78.6 |
| W41P | 3.72 |
| Q51E | 63.9 |
| C60T | 75.8 |

Series 4 — method: RNA Bind-n-Seq; form: RNA; medium: in vitro; concentration: not given; notes: RNA with constant flanks, ends assumed; relative to: input RNA pool; direction: higher = stronger binding
Target: RING finger protein unkempt homolog, zinc fingers 1-6, GST-SBP tag (UNK, Homo sapiens, UniProt Q9C0B0, residues 30-357)
Constant ends, left off below: GGGAGUUCUACAGUCCGACGAUC … CAACAGAGGAUUGAGCAUCA
Residues (chain): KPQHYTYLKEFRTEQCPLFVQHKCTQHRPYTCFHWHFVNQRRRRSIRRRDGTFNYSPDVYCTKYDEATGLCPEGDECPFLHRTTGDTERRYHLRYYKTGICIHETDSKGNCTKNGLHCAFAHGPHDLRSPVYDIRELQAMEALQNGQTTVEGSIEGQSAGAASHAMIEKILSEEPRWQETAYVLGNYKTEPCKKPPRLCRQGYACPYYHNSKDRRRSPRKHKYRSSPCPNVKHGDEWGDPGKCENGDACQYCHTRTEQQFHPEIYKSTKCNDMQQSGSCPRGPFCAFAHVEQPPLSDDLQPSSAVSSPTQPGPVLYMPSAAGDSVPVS
| Sequence | bound/input enrichment |
| --- | --- |
| UCUCUCCUCCUAAGUUACGGGGCAGAUCCAACCCUGCUGAACUGUCACAAUAAAAGUGCUACCGACCUGGCCCCCACGGCACAGCUGAAGGAAAGAUUAUCGUAUGAAUUUAAAGGCCAU | 0.169 ratio |
| CGGAACACGAUCGCCUCCAUCGCUGCUGGCGUUCUAUUUUUCACGGGAUGGUGGAUCAUCACCGACGCGGCUGUCAUGUACCCCAGGAUGGAUCAAUUCAACCAUUCAUACCAUACCUGU | 0.0541 ratio |
| UAGGAAGCAAAUGUCUAUUUCCAAAGCAAUGAGCUUGUUGUGACUGUGAUUUUAUUCUUCUACCGUAUUUUUUUCCUCAUUUUAACUGAGAGGAGAAAAUAAUACUCUUUUGCAAUAUCC | 0.068 ratio |
| CGCCUCGGGUCGUGGAGCCAGGAGCGACGUCACCGCCAUGGCAGGCAUCAAAGCUUUGAUCCGUUUGUCCUUUGGAGGAGCAAUCGGACUGAUGUUUUUGAUGCUUGGAUGUGCCCUUCC | 0.0437 ratio |
| GAUCAUAAGAAAGAGCUGAGAAAACUCAAUAUGUCUAUACUGAUUAAUUUCUUAGACCUUUCCGACAUCUUAAUAAGAAGUCCUGGGAGUAUAAAACGAGAAGAAAAGCUAGAAGAUCUU | 0.238 ratio |
| GCUAAGAUUGGGCUUAUUCAGUUUUGCUUAUCUGCUCCUAAAACAGAUAUGGAUAAUCAAACCGCCGUAUCUGACUAUGCCCAGAUGGAUCGAGUGCUUCGAGAGGAGAGAGCCUAUAUU | 0.18 ratio |
| AAGAACUAAUUGCAGAGAUAGGUUCAUUAUCUCUUCAUUGUACCAUAGAUGAGAAGCGGUCCGCUGGCUAUUGUCAAGCAUGUGAUGUUCUUGUACCUUCUUCUGAUAGUACAUCUCAAC | 0.202 ratio |
| CUCCUCUACAGAGCCACAAUGGCUCUGACGCUUGGUGGCACAGCCUAUGCCAUCUAUCUGUCCGCUAUGGCUGCAUUUCCCAAGAAGCAGAACUAAUGUCGUCAUCCCAGUCUUCACGUG | 0.204 ratio |
| CUACCAACCAGACCAGGACUUAAUAAAGCACAACUUGUUGAGAUAGUUGGUUGCCACUUCCGGUCUAUUCCAGUGAAUGAAAAAGACACCUUAACAUAUUUCAUCUACUCAGUGAAGAAU | 0.155 ratio |
| CUGCAGUAAAACACAGAAGGCUUUAAAAUGUUUUCUUGCAUAAAAUUCAAAACUUUUAAGCCGCUGCUUAUGAGAAUAGGGAAGGCAGAAAGCUAAUGUCUGUCUCAAGAUACAGGACAG | 0.227 ratio |
| UACAAGGAAUUGAAGAAUUUGAUUCCUAAGUCAGCAGUGGGCACACUGUCUGGAAACUCCCGUAAUGUGAUCCAGCUAAUCAUCGAUGCCUACAACUCUCUUUCUUCAGAAGUCAUUCUG | 0.0603 ratio |

Series 5 — target: CCNB3, cyclin fold, Cln2 fusion (human); method: yeast growth competition, sequencing; medium: yeast; notes: weak parent motif; relative to: not given; direction: higher = stronger binding
Parent: PKMYT1 docking peptide (human); SFEPRNLLSLFED; partner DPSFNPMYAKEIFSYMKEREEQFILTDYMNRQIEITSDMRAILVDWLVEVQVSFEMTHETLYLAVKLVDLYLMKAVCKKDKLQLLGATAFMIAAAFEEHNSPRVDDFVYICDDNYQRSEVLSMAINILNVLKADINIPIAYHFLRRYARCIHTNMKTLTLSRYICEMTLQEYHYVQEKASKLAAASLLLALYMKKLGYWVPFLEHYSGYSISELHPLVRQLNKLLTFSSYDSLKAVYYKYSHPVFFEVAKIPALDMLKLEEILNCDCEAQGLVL
| Change | normalised enrichment score |
| --- | --- |
| SFQPRNLLSLFED [E3Q] | 0.29 |
| SFEPRSLLSLFED [N6S] | 0.633 |
| SFEPRNLLSLEED [F11E] | 0.376 |
| SFEPRNLLSKFED [L10K] | -0.536 |
| SFEPRNLLSLFPD [E12P] | 0.395 |
| SFEPDNLLSLFED [R5D] | 0.438 |
| SFEPRMLLSLFED [N6M] | 0.0166 |
| SQEPRNLLSLFED [F2Q] | 0.422 |
| SFEPRNLGSLFED [L8G] | 0.0611 |
| SFEPRNLLCLFED [S9C] | 0.51 |
| SFEPRNLLPLFED [S9P] | 0.837 |
| IFEPRNLLSLFED [S1I] | 0.24 |
| SFEWRNLLSLFED [P4W] | 1.28 |
| SFEPRNHLSLFED [L7H] | 0.382 |
| SFEPMNLLSLFED [R5M] | 0.409 |
| SFEPRNLLSLTED [F11T] | 0.328 |
| SFEERNLLSLFED [P4E] | 0.363 |
| SFEPRNLLSLFQD [E12Q] | 0.412 |

Repeated from above (series 2):
| Change | binding fitness [natural log] |
| --- | --- |
| L31H | -1.55 |
| A46P | -1.49 |
| T37Q | -1.06 |
| A57H | -1.48 |
| I28G | -1.43 |
| M51Y | -1.37 |
